Published values pooled from the literature.
Lines come from different studies, so protocols differ. ± marks the error that the study gave.
B1: Urtica dioica agglutinin; sequence looked up; chain QRCGSQGGGGTCPALWCCSIWGWCGDSEPYCGRTCENKCWSGERSDHRCGAAVGNPPCGQDRCCSVHGWCGGGNDYCSGSKCQYRCSSSVRGPRVALSGNSTANSIGNVVVTEPLFDQMFSHRKDCPSQGFYSYHSFLVAAESFPAFGTIGDVATRKREVAAFLAHISQATSGERSDVENPHAWGLCHINTTTVTENDFCTSSDWPCAAGKKYSPRGPIQLTHNFNYGLAGQAIGEDLIQNPDLVEKDPIISFKTALWFWMSQHDNKPSCHDIVLNANSAANRIPNKGVIGNIISRAFGHDDFAVRSSSIGFYKRYCDMLGVSYGHDLKYWFDNTPSSEFQRIQMRVAA

Substance = Cc1ccc(S(=O)(=O)N2C(=O)CSC2c2ccccc2O)cc1 (stereo not drawn); tested on = herpes simplex virus 1; assay = viral cytopathicity; test system = HEL, KOS TK-deficient acyclovir-resistant; endpoint = EC50; value = > 100000 nM
Substance = CCOC(=O)C(C)NP(=O)(COC(CF)CN1CN2C=C(c3ccc(OC)cc3)NC2=NC1=O)NC(C)C(=O)OCC (stereo not drawn); tested on = herpes simplex virus 1; assay = cytopathic effect; test system = HEL, KOS, TK-deficient, acyclovir-resistant; endpoint = EC50; value = > 100000 nM
Substance = B1 (Urtica dioica agglutinin); tested on = feline herpesvirus; assay = viral cytopathic effect, microscopy; test system = CRFK; endpoint = EC50; value = 1.4 µg/mL
Substance = CN(Cc1ccc(F)cc1F)C(=O)c1cn(Cc2ccc(F)cc2)cc(O)c1=O; tested on = Human betaherpesvirus 5; assay = viral replication, inhibitor; setting = 7 days; endpoint = EC50; value = 1400 nM
Substance = CNC(C)Cc1ccc2c(c1)OCO2 (racemic); assay = Drug Effects Questionnaire, item: Like Drug; test system = human; setting = oral, 0.75 mg/kg, mean over session, unit not given; how to read = baseline: pre-dose baseline; endpoint = subjective drug effect rating; value = 22.4
Substance = CN1c2ccc(-c3ccc(C#N)cc3)cc2[C@H]2[C@H](CCN2C(=O)c2cccc(F)c2)[C@@H]1CO; tested on = respiratory syncytial virus; assay = cytopathic effect; test system = HEp-2, A2; setting = 5 days, resynthesized sample; endpoint = EC50; value = 1200 nM
Substance = COC(=O)N[C@H](C(=O)N1CCC[C@H]1c1ncc(-c2ccc(-c3ccc(-c4cnc([C@@H]5CCCN5C(=O)[C@@H](NC(=O)OC)C(C)C)[nH]4)cc3)cc2)[nH]1)C(C)C; tested on = hepatitis C virus; assay = viral replication, transient replicon; test system = genotype 1a NS5A L31M; endpoint = EC50; value = 2.1 ± 0.61 nM
Substance = O=C(CN1c2c(n[nH]c2-c2cccc(Cl)c2)-c2ccccc2S1(=O)=O)NN=Cc1ccc(Br)cc1; tested on = HIV-1; assay = viral replication; test system = PBMC; endpoint = EC50; value = 5200 nM
Substance = Nc1ccn(C[C@@H](CO)OCP(=O)(O)O)c(=O)n1; tested on = human cytomegalovirus; assay = cytopathic effect; test system = HEL fibroblasts, AD-169; endpoint = EC50; value = 840 ± 210 nM
Substance = c1ccc(CCN2CCCCC2)cc1; tested on = L-type calcium channel benzothiazepine site, rat; assay = binding; test system = rat cerebral cortex; setting = together with: [3H]diltiazem 5 nM; endpoint = Ki; value = > 10000 nM
Substance = NC(=O)c1ncn([C@@H]2O[C@H](CO)[C@@H](O)[C@H]2O)n1; tested on = respiratory syncytial virus; assay = viral replication; test system = HeLa; endpoint = EC50; value = 30000 nM
Substance = OC[C@@H]1[C@@H](O)[C@H](O)[C@@H](O)CN1CCCCCCOc1cc(F)ccc1F; tested on = bovine viral diarrhea virus; test system = MDBK; setting = 22 h; endpoint = EC50; value = 1300 ± 700 nM
Substance = N=C(N)NCCC[C@@H]1NC(=O)[C@H](CCCCNC(=O)CNC(=O)CNC(=O)CNC(=O)CC[C@H](NC(=O)CCOCCOCCOCCOCCNC(=O)c2ccc(NN)nc2)C(=O)NCC(=O)NCC(=O)NCC(=O)NCCCC[C@@H]2NC(=O)[C@@H](Cc3ccccc3)NC(=O)[C@H](CC(=O)O)NC(=O)CNC(=O)[C@H](CCCNC(=N)N)NC2=O)NC(=O)[C@@H](Cc2ccccc2)NC(=O)[C@H](CC(=O)O)NC(=O)CNC1=O [technetium-99m labelled]; assay = γ-counting; test system = female athymic nude mice, U-87 MG xenograft, kidneys; setting = intravenous, 0.5 h; endpoint = tissue uptake; value = 12.3 ± 0.86 %ID/g
Substance = NNC(=O)Cn1c2ccccc2c2cn[nH]c(=O)c21; tested on = MCF7; assay = RT-PCR, item: PI3K; setting = 5 µM, 48 h, normalised to β-actin; how to read = baseline: untreated; endpoint = fold change; value = 0.316
Substance = COC(=O)c1c[nH]c2ccc(CN3CCN(c4ccccc4)CC3)cc2c1=O; tested on = Plasmodium berghei; test system = HepG2, liver stage; setting = 44 h; endpoint = EC50; value = 85 to 90 nM
Substance = O=C1Nc2ccccc2/C1=N/NC(=S)N/N=C1\C(=O)Nc2ccccc21; tested on = respiratory syncytial virus; assay = viral replication; test system = HeLa; endpoint = EC50; value = > 100000 nM
Substance = CN[C@@](C)(C[18F])C(=O)O; tested on = SK-OV-3 tumour model; test system = host not given, pancreas; setting = 15 min, tumour-bearing; endpoint = tracer uptake; value = 32 %ID/g
Substance = Cn1cnc(S(=O)(=O)N2CCCCN3[C@H](CO)[C@@H](c4ccc(-c5ccc(F)cc5)cc4)[C@@H]3C2)c1; tested on = respiratory syncytial virus; assay = cytopathic effect; test system = HEp-2, A2; setting = 5 days, original sample; endpoint = EC50; value = 2900 nM
Substance = CP(=O)(O)CCC(N)C(=O)O (stereo not drawn); tested on = Digitaria sanguinalis; setting = 60 g/ha, 13 days, DIGSA, post-emergence spray; how to read = baseline: untreated (0%), complete kill (100%); endpoint = herbicidal activity; value = 80%
Substance = Nc1ncnc2c1ncn2[C@@H]1CS[C@H](CO)[C@H]1F; tested on = Coxsackievirus B3; assay = viral cytopathic effect; test system = HeLa; endpoint = EC50; value = > 100 µg/mL
Substance = O=C(C=Cc1ccc2ccccc2n1)c1cc(Cl)ccc1O; tested on = Alphacoronavirus 1; assay = viral replication, inhibitor; test system = CRFK; setting = 2 h; endpoint = EC50; value = 2340 nM
Substance = CN[C@@H]1[C@H](O[C@@H]2OC[C@@H](O)[C@H](O)[C@H]2O)[C@@H](O)[C@H](O[C@H]2c3cc(C)c(C(=O)N[C@H](C)C(=O)O)c(O)c3-c3c(cc4c(c3O)C(=O)c3cc(OC)cc(O)c3C4=O)[C@@H]2O)O[C@@H]1C; tested on = Alphacoronavirus 1; assay = viral replication, inhibitor, luciferase; setting = 6 h; endpoint = EC50; value = > 120000 nM
Substance = Cc1ncc2n1-c1ccc(Cl)cc1C(c1ccccc1F)=NC2; test system = healthy men, plasma; setting = oral, 7.5 mg, without amenamevir; endpoint = AUC(0-inf) LS mean; value = 113 ng·h/mL
Substance = [123I]c1cncc(OC[C@@H]2CCN2)c1; assay = SPECT; test system = human, brain cortex; setting = intravenous bolus plus infusion, 7.6 mCi; how to read = baseline: plasma; endpoint = tissue/plasma ratio; value = 29.1
Substance = N/C(=N\O)c1cc(O)c(O)c(O)c1; tested on = human cytomegalovirus; assay = viral spread, GFP reporter; test system = MRC-5, BADrUL131-Y4 (AD169, GFP); setting = 14 d; endpoint = EC50; value = 43000 ± 5500 nM
Substance = CC(C)c1ccc2c(c1)CC[C@H]1[C@](C)(CN)CCC[C@]21C; tested on = WM278.1 melanoma (vertical growth phase); assay = cell viability, MTS; setting = 48 h; endpoint = IC50; value = 4040 ± 40 nM
Substance = O=C(NCc1c(F)cccc1Cl)c1cn(Cc2ccc(F)cc2)cc(O)c1=O; tested on = Human betaherpesvirus 5; assay = viral replication, inhibitor; setting = 7 days; endpoint = EC50; value = 300 nM
Substance = Cc1ccc(S(=O)(=O)N2C(=O)CSC2c2ccc([N+](=O)[O-])cc2)cc1 (stereo not drawn); tested on = herpes simplex virus 1; assay = viral cytopathicity; test system = HEL, KOS; endpoint = EC50; value = > 100000 nM
Substance = O=C(NCc1ccc(F)cc1F)c1cn(Cc2ccccc2)cc(O)c1=O; tested on = Human betaherpesvirus 5; assay = viral replication, inhibitor; setting = 7 days; endpoint = EC50; value = 1000 nM
Substance = C[C@H]1CNCCc2ccc(Cl)cc21; test system = Sprague-Dawley rat, male, plasma; setting = subcutaneous, 0.5 mg/kg, 120 min; endpoint = plasma concentration; value = 4.83 ± 0.13 ng/mL
